Experimental data pooled from the literature.
Every numbered part comes from another study and shows a few of its results, in no order. Substitutions count along the parent as printed.

Block 1 — technique: RNA Bind-n-Seq; form: RNA; matrix: in vitro; tested at: not given; relative to: input RNA pool; reading: higher = stronger binding; endpoint: bound/input enrichment
Target: RING finger protein unkempt homolog, zinc fingers 1-6, GST-SBP tag (UNK, Homo sapiens, UniProt Q9C0B0, residues 30-357)
Notes: RNA with constant flanks, human and mouse sites, ends assumed
Constant ends, left off below: GGGAGUUCUACAGUCCGACGAUC … CAACAGAGGAUUGAGCAUCA
Target sequence (chain): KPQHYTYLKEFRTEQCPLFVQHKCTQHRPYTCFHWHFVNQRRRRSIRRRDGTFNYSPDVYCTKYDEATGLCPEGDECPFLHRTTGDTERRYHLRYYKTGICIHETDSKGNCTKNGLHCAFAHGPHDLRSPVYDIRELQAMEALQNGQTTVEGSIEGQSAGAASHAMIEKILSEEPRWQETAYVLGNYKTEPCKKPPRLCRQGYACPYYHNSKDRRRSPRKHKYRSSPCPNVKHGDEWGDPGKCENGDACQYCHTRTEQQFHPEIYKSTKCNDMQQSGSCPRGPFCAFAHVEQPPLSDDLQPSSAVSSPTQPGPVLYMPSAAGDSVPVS
Sequence = CAUGCAGUUGUGGUCAAUAUUGUGGUAAUCGCUAAUUGUACUGAUUGUUUAAGUGUGCAUUAGUUGUGUCUCCCCAGCUAGAUUGUAAGCUCCUGGAGGACAGGGACCACCUCUACAAAA; result = 0.507 ratio
Sequence = GAGGACCCUUCUUCUCCGCGAGCAAGCCCUGCCCACUCGCCCCGGGAAAAUGGAAUCGACAAAAAUCGCCUGCUAAAGAAGGAUGCUUCUAGCAGUCCAGCUUCCACGGCCUCCUCGGCA; result = 0.0991 ratio
Sequence = GCCUCCCCGUCCACCUCUUCUGCUCAUACCCCUUCUCAGAUCGCUUCUCCUCUCCAAGAAGAUACUCUAUCCGAUGUUGCUCCUCCCAGAGAUAUGUCCUUAUAUGCCUCACUCACCUCU; result = 1.25 ratio
Sequence = AGAGCGUUUGUUAUAAGACGUAACGUAACCUACUGUUCAUGUUUGCUCUGGUCUGAAGUGUUUAGCUGUUGAGCUGGAUUCCUUAGGAGACCAAAUUAAGAUGGCUUAAAUUACAUCUUA; result = 0.572 ratio
Sequence = GGAGGGUUUAUUAGAGGUCUAGUAGCCCAGAUCUGCCGCAGUGGACUACUCCAAGGAUAUGAGGACAAGCUAAGGGAUCCAGCAGUCCAAAGCCUCUUACAGCCUGGGGAGUGCGAGAGA; result = 0.343 ratio
Sequence = UGUUUGCACCAGGCUGAAUAUUCUGAACUGGUCGAAACAUUACUAUCAAGUCAGCAAGACCCAGUUAUUUACCAGAGAUUAGCAGAUGCCUUCAACAAGCUCACUGCAAGCAGCACUCCU; result = 0.259 ratio
Sequence = CUUAAAAUCAAAUGUAAAUCAAUUACAGAUUAAAAAAAAAAGCCUGUAUUUAACUCAUAUGAUCUCCCUUCAGCAACUUAUUUUGCUUUAAUUGCUUUAAAUCUUAAGCAAUAUUUUUUA; result = 0.264 ratio
Sequence = GCACGACGUUCUUUCUUCUGUAGGAUGAAGUGUAACAGGCCUUCAGUAAAGGUUGAAGACAAGGACUUCCCCUCUACCUGCUCAAAGAAAAAAGAUCGAAAAAGCUUCUGCACAAUCCAC; result = 0.159 ratio

Block 2 — technique: DHFR PCA, deep sequencing; matrix: yeast; with: (+)-ABA 710 µM; relative to: wild-type fitted maximum; reading: higher = stronger binding; endpoint: relative binding score
Target: ABI1, truncated, D143A, DHFR fusion (Arabidopsis thaliana)
Notes: methotrexate growth selection, single substitutions
Parent: PYL1, truncated, DHFR fusion (Arabidopsis thaliana); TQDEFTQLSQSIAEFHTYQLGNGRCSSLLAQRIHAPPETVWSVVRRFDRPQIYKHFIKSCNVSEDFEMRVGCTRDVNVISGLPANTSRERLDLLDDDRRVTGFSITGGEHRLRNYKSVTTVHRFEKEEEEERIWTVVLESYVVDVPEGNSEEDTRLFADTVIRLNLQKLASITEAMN; partner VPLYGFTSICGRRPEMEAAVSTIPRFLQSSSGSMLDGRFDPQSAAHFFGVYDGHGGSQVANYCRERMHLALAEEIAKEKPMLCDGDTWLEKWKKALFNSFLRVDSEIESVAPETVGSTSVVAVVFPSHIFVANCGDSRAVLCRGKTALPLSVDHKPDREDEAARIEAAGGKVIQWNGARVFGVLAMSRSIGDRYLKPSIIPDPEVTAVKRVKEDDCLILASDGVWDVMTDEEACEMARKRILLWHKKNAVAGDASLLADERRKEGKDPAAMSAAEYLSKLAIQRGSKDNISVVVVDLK
Change = N165C; result = 26.6%
Change = P36Q; result = 95.1%
Change = T106K; result = 94.4%
Change = F157P; result = -10.9%
Change = Q51S; result = 91.5%
Change = N177D; result = 102%
Change = L169A; result = 14.1%
Change = I162P; result = 9.12%
Change = H55G; result = 106%
Change = D159I; result = 1.36%
Change = L28M; result = 96.7%
Change = P36C; result = 95.5%
Change = N114P; result = 3.83%
Change = Q167R; result = 104%
Change = T17M; result = 91%
Change = V137S; result = -3.24%
Change = F124H; result = 104%
Change = D153F; result = 11.1%
Change = I172A; result = 88.2%
Change = E139M; result = 93.5%
Change = K116N; result = 94.2%

Block 3 — target: BATF2, bZIP domain (human); technique: DHFR protein complementation; matrix: yeast; relative to: wild-type JUN-FOS pair; reading: higher = stronger binding; endpoint: binding fitness
Notes: single substitutions, most at no-binding floor
Parent: JUN, bZIP domain (human); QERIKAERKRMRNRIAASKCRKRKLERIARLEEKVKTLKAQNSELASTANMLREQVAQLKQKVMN; partner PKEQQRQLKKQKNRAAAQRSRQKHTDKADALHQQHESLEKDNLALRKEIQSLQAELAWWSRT
Change = E32K; result = -0.452 natural log
Change = Q41R; result = -0.472 natural log
Change = S43F; result = -0.378 natural log
Change = R30T; result = -0.141 natural log
Change = A57G; result = -0.452 natural log
Change = L59G; result = -1.39 natural log
Change = I28E; result = -0.33 natural log
Change = E54K; result = -0.427 natural log
Change = K34W; result = -0.401 natural log
Change = Q58V; result = -0.349 natural log
Change = A40Y; result = -0.607 natural log
Change = T48W; result = -0.489 natural log
Change = E54W; result = -1.03 natural log
Change = L31G; result = -1.31 natural log
Change = N42A; result = -1.26 natural log
Change = K36G; result = -0.444 natural log
Change = N42E; result = -1.32 natural log
Change = S47A; result = -0.132 natural log

Block 4 — target: CCNA1, cyclin fold, Cln2 fusion (human); technique: yeast growth competition, sequencing; matrix: yeast; notes: strong parent motif; relative to: not given; reading: higher = stronger binding; endpoint: normalised enrichment score
Parent: E2F1 docking peptide (human); PPVKRRLDFETDH; partner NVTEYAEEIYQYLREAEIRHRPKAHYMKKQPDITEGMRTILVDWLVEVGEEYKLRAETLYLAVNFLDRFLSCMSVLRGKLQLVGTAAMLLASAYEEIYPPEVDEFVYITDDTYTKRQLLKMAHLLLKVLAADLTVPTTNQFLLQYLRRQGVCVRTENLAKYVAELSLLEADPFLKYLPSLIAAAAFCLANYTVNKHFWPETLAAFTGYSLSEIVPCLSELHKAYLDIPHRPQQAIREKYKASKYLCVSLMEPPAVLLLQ
Change = P2R; result = 2.05
Change = D12I; result = 1.96
Change = F9A; result = 0.102
Change = R6V; result = 1.11
Change = F9K; result = 0.0105
Change = L7R; result = 0.214
Change = P2I; result = 2.03
Change = R5A; result = 0.408
Change = F9D; result = -0.0971
Change = V3D; result = -0.181
Change = V3M; result = 0.744
Change = R5H; result = -0.224
Change = R5E; result = -0.232
Change = D12Y; result = 1.77
Change = T11K; result = 1.75
Change = L7W; result = 0.366
Change = R6M; result = 1.3
Change = D12T; result = 1.4
Change = D8A; result = 1.74
Change = V3Y; result = 0.74
Change = E10T; result = 1.63

Some of these lines once more (block 3):
Change = T48W; result = -0.489 natural log
Change = E32K; result = -0.452 natural log
Change = E54K; result = -0.427 natural log
Change = I28E; result = -0.33 natural log
Change = S43F; result = -0.378 natural log
Change = R30T; result = -0.141 natural log
Change = L31G; result = -1.31 natural log
